Measured values of several laboratories.
Every numbered part comes from another study and shows a few of its results, in no order. Changes are numbered by the printed parent chain.
UniProt Q12851, sequence (whole entry, looked up): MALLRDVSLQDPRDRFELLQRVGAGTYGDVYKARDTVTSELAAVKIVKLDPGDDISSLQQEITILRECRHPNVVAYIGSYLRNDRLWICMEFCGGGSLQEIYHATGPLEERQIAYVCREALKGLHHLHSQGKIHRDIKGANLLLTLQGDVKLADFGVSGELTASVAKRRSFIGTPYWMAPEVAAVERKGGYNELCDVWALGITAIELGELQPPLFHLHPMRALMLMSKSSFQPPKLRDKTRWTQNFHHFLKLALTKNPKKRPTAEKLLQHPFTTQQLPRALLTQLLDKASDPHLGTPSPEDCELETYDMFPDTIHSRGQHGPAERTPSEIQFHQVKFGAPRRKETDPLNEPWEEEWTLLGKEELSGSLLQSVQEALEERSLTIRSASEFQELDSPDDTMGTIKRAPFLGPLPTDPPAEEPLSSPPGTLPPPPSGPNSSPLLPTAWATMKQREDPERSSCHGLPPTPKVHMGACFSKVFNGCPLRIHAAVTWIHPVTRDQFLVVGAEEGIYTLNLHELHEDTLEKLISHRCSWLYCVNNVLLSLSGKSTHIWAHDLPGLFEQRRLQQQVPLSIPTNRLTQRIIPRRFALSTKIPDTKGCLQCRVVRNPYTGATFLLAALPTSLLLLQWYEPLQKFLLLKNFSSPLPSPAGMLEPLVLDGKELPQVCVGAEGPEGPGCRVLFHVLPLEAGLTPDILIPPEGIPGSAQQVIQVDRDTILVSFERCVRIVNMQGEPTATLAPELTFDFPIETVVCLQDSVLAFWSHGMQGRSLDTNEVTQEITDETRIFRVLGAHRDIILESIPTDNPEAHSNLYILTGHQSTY

Study 1
Target: ATF2, bZIP domain (human)
Method: DHFR protein complementation
Medium: yeast
Setting: single substitutions, most at no-binding floor
Baseline: wild-type JUN-FOS pair
Reading: higher = stronger binding
Starting sequence: JUN, bZIP domain (human); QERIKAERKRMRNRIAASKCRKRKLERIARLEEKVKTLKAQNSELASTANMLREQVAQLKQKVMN; partner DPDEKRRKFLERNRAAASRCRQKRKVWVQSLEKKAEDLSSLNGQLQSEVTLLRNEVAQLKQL
`Q41L` has a binding fitness of -1.49 natural log.
For `V35N`, the binding fitness was -1.42 natural log.
For `V56Q`, the binding fitness was -1.48 natural log.
`R30C` gave a binding fitness of -1.4 natural log.
The binding fitness of `R53K` is reported as -1.61 natural log.
With `A29W` the binding fitness was -1.46 natural log.
The binding fitness of `R30A` is reported as -1.17 natural log.
For `L52C`, the binding fitness was -1.5 natural log.

Study 2
Target: Centromere-binding protein 1, full length, His-tagged (CBF1, Saccharomyces cerevisiae, UniProt P17106, residues 1-351)
UniProt P17106, sequence (whole entry, looked up): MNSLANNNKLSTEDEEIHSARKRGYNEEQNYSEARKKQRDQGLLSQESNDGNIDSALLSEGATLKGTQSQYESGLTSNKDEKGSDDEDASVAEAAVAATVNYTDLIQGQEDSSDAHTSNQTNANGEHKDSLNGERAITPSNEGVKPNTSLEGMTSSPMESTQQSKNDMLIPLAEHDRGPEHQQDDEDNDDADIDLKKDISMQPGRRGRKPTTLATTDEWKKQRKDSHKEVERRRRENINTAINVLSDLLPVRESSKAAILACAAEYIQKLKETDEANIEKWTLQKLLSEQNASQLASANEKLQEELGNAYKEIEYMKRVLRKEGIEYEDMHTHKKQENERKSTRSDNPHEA
Method: competition protein-binding microarray
Form: double-stranded DNA, one strand shown
Medium: in vitro
Concentration: 2 µM
Setting: whole 60-bp probe, lowest competitor level
Together with: Pho4 competitor, 0.05 µM
Reading: higher = stronger binding
`TCGTCATTGTGGATACACGTGAGATTAATGCCTCATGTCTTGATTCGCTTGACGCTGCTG` has a fluorescence intensity of 1520 a.u.
The fluorescence intensity of `GGGGAATTTCGCCGTCACGTTGTTTTGGTAAGTTCCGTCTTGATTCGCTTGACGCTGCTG` is reported as 908 a.u.
With `GTCTTGTCTCATTGTGTGGTGGGTGTCCCCACTTCAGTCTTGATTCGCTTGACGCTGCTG` the fluorescence intensity was 71.9 a.u.
For `CGGGTGAGGGGTTTGCACGTGACTCGGGTGCGGGTAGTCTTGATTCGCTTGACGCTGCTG`, the fluorescence intensity was 7350 a.u.
The fluorescence intensity of `TAATGGCGGGTCAGTGACATGCGCGGACAAAATAACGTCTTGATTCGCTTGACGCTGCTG` is reported as 81.9 a.u.
For `AGCTTGAGCCAAGACATCGTGACAAACAATAATAGGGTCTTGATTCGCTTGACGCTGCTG`, the fluorescence intensity was 291 a.u.
`CTAACGAAGGTTTTTCACGTGATATACAAGCCAAGTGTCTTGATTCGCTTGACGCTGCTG` gave a fluorescence intensity of 3110 a.u.
With `TCTCATAAAAGTGAAACCGTGACGAATGTAAGATGTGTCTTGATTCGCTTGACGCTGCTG` the fluorescence intensity was 152 a.u.

Study 3
Target: Prothrombin, mature alpha-thrombin (F2, Homo sapiens, UniProt P00734)
Method: aptamer microarray, sandwich
Form: DNA with 2'F-ANA
Medium: in vitro
Concentration: 200 nM
Setting: whole 15-mer aptamer, many near background
Together with: Cy3 exosite-II aptamer, 400 nM
Reading: higher = stronger binding
Sequence: GGTTGGTGTGGTTGG
`2'F-ANA at 3 7 9 13 15`: “mean fluorescence intensity” 962 a.u.
`2'F-ANA at 2 3 4 7 8 9 13`: “mean fluorescence intensity” 490 a.u.
`2'F-ANA at 1 4 5 7 8 9 11 15`: “mean fluorescence intensity” 55.5 a.u.
`2'F-ANA at 4 5 8 11 13 15` — result for “mean fluorescence intensity”: 51.4 a.u.
For `2'F-ANA at 1 3 4 6 10 11`, “mean fluorescence intensity” read 60.9 a.u.
For `2'F-ANA at 2 3 4 6 7 9 10 13 14`, “mean fluorescence intensity” read 159 a.u.
For `2'F-ANA at 1 4 11 12 15`, “mean fluorescence intensity” read 260 a.u.
`2'F-ANA at 4 9 11` — result for “mean fluorescence intensity”: 300 a.u.

Single results of other studies
For `Cn1cc(/C=C2\C(=O)Nc3ccc(S(N)(=O)=O)cc32)c2ccccc21`, the remaining activity was 17.4% (Mitogen-activated protein kinase kinase kinase kinase 2 (MAP4K2, Homo sapiens, UniProt Q12851); enzyme activity, inhibitor; 0.5 µM; baseline: control).

Repeated from above (study 2):
For `CGGGTGAGGGGTTTGCACGTGACTCGGGTGCGGGTAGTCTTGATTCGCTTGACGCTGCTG`, the fluorescence intensity was 7350 a.u.
`TCGTCATTGTGGATACACGTGAGATTAATGCCTCATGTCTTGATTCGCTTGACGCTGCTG` has a fluorescence intensity of 1520 a.u.
For `AGCTTGAGCCAAGACATCGTGACAAACAATAATAGGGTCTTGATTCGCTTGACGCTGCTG`, the fluorescence intensity was 291 a.u.
